Results collected from several papers.
Parts stem from different laboratories: compare values within a part only.

Study 1 — technique: universal PBM; molecule type: double-stranded DNA, one strand shown; sample: in vitro; tested at: not given; direction: higher = stronger binding; quantity: E-score
Target: Sal-like protein 4, full length isoform B (SALL4, Homo sapiens, UniProt Q9UJQ4-2, residues 1-616)
Setting: 8-mer, flanks averaged, mean of replicates
Residues (chain): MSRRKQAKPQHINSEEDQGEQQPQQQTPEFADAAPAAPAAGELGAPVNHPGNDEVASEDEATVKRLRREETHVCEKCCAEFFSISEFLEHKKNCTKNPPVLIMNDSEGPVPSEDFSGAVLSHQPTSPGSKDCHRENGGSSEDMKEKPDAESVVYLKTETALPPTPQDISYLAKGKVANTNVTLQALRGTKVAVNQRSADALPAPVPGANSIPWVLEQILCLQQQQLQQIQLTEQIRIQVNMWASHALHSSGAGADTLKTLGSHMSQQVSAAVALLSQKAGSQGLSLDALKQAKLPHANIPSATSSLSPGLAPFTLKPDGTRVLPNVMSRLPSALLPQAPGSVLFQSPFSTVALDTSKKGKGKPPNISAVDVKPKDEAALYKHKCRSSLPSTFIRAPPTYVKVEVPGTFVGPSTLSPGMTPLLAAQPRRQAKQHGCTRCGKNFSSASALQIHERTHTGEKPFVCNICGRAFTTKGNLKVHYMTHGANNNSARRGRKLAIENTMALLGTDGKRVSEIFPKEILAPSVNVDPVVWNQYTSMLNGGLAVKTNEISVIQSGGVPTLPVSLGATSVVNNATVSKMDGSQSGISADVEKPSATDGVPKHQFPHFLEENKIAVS
CAGGCGGA: -0.149
ATCGCAAT: 0.055
CTAGGAGA: -0.0584
CGATTGCA: -0.00618
GAGCAGCC: -0.319
CTCATGTC: 0.00099
GAGCATAC: 0.0916
ACTTGGTG: -0.0688
GGTTGATA: 0.0444
GGGAGCGA: -0.28
AAGTCGTG: -0.0251
AGGAGTTA: 0.15
ACCTGGGA: -0.113
CTTCGTAA: 0.118
AGTTATCG: 0.195
GCATCCCA: -0.133
ACCGCAGG: -0.148
AGGTCGCA: -0.0612
GCTGCGAA: -0.00849
AATTATCG: 0.348
GAAAAGAA: 0.0108
AGGAATTG: 0.131
AAATCTCG: 0.0787
ATTTTCGC: 0.122
GGCAGTTA: 0.0165

Study 2 — technique: protein-binding microarray; molecule type: double-stranded DNA, one strand shown; sample: in vitro; tested at: 250 nM; setting: 60-bp whole probe; with: salmon DNA 0.4 mg/ml; baseline: random background probes; direction: higher = stronger binding; quantity: log fluorescence; shared flanks, not repeated: GCCTAGCAC … GTCTTGATTCGCTTGACGCTGCTG
Target: Interferon regulatory factor 5, full length, phosphomimetic (IRF5, Homo sapiens, UniProt Q13568-2, residues 1-514, K96S/S451D/S453D/S456D/S462D)
TTAGGACTACTTCTCCTTTAGTGCTAG: -0.0593 z-score
TTCGGTTCCGGTTTCGGTTAGTGCTAG: 9.33 z-score
TTAGGTATCGGTCTCGATTAGTGCTAG: 7.1 z-score
CTTCTCCTCCAGGTTCTCTGAGTGCTA: -0.148 z-score
GAAGATTTCGGGTTTCGAGACGTGCTA: 4.87 z-score
CTCGCCTGGGGATGCTAACAGTGCTAG: -0.814 z-score
ATAGGACTGCTTTTCCTTTAGTGCTAG: 0.313 z-score
TCACCTTTGCCTCATCTTACTGTGCTA: 0.388 z-score
TTAGGTTTCGACACTGGGCTAGTGCTA: 5.59 z-score
TTAGATATCGGGACTGGAATAGTGCTA: 1.23 z-score
TCCTGGAGTCTATGCTGCTGGTGCTAG: -0.752 z-score
TTAGGACTGGGGTCTCGGTTAGTGCTA: -0.17 z-score
TTAGAACTGGGGTTTCGAGTAGTGCTA: 1.82 z-score
TTAGGTCTCCGACTGGGTTAGTGCTAG: -0.289 z-score
GACGATTTCGGGTCTGGAGACGTGCTA: 2.94 z-score
TTCATTATTGTCTTCCCCATGTGCTAG: 1.03 z-score
TCAACTTTCTGAATGCCACTGTGCTAG: 2.2 z-score
TTAGATTCCAGTTGCGATTAGTGCTAG: 1.62 z-score
GACGGTATCGAGTTTCGGGACGTGCTA: 5.82 z-score

Study 3 — technique: RNA Bind-n-Seq; molecule type: RNA; sample: in vitro; tested at: 365 nM; baseline: no-protein control; direction: higher = stronger binding; quantity: RBNS enrichment (R)
Target: RNA binding protein fox-1 homolog 2, RRM domain, GST-SBP tag (RBFOX2, Homo sapiens, UniProt O43251-10, residues 100-194)
Setting: natural RNA segment, single round, ends assumed
Shared flanks, not repeated: GGGAGUUCUACAGUCCGACGAUC … UGGAAUUCUCGGGUGCCAA
Target sequence (chain): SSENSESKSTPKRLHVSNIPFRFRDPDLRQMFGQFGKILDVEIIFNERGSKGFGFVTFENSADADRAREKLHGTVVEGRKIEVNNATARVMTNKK
GAUGCUCAGCAGGGAGGAGGGAAAGCCUGUAUAGCUAGCCUGACAUUUUGUUUCUUGUACAAUAUCUCAUGUGACCCAAACUUGAGACUCCAAACAGUACCUUUGCUUUG: 0.595
UGUUUUCUCAGCAUGCAUUAAAAAUAUUCCUUAACUUCAAUUGUAAAUAAACUUUUGGUGUUAGGGAUUUCAGUGUCUAUUUUUCUUUUCCUUGUUUCUUCAACUUUGUC: 33.7
CAUCCUGGUUUCCACCCCGGGCUGGCUAGCUCUGUUGGUUUGAAGACUGACAGCCAGCCUGGCUCAUUCUCAUUAUUGGCUAGUUAGCUUUCUUUAUCAACCUGCUCACU: 0.403
UCAAGAACAGCUCUCCAUGGCUUUGCCUUGACUGUUGUUCCUCCCUUUGCCUUUCCCGCUCCCACUAUCUGGGCUUUGACUCCAUGGAUAUUAAAAAAGUAGAAUAUUUU: 0.357
AUAAAAACACUUUCAUAGCCUCAUUCAUUCACUUAGAAGUGGUAAUAAUUUUUCCCUAAUGAUACCACUUUUCUUUUCCCCCUGUACCUAUGGGACUUCCAGAAAGAAGU: 0.787
UUACUUCAAUGGCAGCAGCGAUCAAGAAAGUUCUCCAACCUUGAACAGCCAAAUGGAUUGACUACAGUGGGGGCAGCUAAUUAAUGAUUAAUCAGAAGCAUUUGAUAAUA: 0.641
CAGAAAACCUGACUCUAACUGGUUUAUAUACAAAAGAAAACUUACUGUAUCAUAUAACAGAAUGAUCCAGGGGAGAUUAAGCUUUGGGCAAGGGCUAUUUACCAGGGCUU: 0.512
CCUAUAUUACUCUCCUGGGAUCUGAGUUUCUGCAGGUCAUUUGUAUGUAGGACCAGGAGUAUCUCCUCAGGUGACCAGUUUUGGGGACCCGUAUGUGGCAAAUUCUAAGC: 1.4

Study 4 — technique: protein binding microarray; molecule type: double-stranded DNA, one strand shown; sample: in vitro; tested at: not given; baseline: not given; direction: higher = stronger binding; quantity: E-score
Target: Histone acetyltransferase KAT6A, winged helix 1, GST fusion (KAT6A, Homo sapiens, UniProt Q92794, residues 1-85)
Setting: 8-mer, flanks averaged, mean of 2 arrays, mostly near background
Construct (chain): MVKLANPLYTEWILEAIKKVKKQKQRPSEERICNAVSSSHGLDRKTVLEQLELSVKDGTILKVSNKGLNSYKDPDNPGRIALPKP
TCTCCAGA: -0.179
GACGCAGC: 0.0772
CTTGAGTC: -0.238
GTCCCCTA: -0.0944
AACGAAGC: -0.013
CATTCCTA: -0.213
AGCACGCT: -0.0278
TCACTACA: -0.192
AATAGTCC: -0.123
ACTATGTG: -0.0675
CGTGAGCA: 0.185
GAGCTACC: -0.0369
AGCTTGAA: -0.177
ATGCCCCA: -0.23
AGTTATAA: -0.158
CTCTGCTA: -0.0791
AACACAAC: -0.0672

For quick reference, copied from above (study 2):
TTAGATATCGGGACTGGAATAGTGCTA: 1.23 z-score
TCCTGGAGTCTATGCTGCTGGTGCTAG: -0.752 z-score
TTAGGACTGGGGTCTCGGTTAGTGCTA: -0.17 z-score
TTAGAACTGGGGTTTCGAGTAGTGCTA: 1.82 z-score
TTAGGTCTCCGACTGGGTTAGTGCTAG: -0.289 z-score
GACGATTTCGGGTCTGGAGACGTGCTA: 2.94 z-score
TTCATTATTGTCTTCCCCATGTGCTAG: 1.03 z-score
TCAACTTTCTGAATGCCACTGTGCTAG: 2.2 z-score
